Assay results of several laboratories.
Parts stem from different laboratories: compare values within a part only. “And” joins repeats or separate records; there may be more than shown.
Sequence of UniProt O75914 (whole entry, looked up): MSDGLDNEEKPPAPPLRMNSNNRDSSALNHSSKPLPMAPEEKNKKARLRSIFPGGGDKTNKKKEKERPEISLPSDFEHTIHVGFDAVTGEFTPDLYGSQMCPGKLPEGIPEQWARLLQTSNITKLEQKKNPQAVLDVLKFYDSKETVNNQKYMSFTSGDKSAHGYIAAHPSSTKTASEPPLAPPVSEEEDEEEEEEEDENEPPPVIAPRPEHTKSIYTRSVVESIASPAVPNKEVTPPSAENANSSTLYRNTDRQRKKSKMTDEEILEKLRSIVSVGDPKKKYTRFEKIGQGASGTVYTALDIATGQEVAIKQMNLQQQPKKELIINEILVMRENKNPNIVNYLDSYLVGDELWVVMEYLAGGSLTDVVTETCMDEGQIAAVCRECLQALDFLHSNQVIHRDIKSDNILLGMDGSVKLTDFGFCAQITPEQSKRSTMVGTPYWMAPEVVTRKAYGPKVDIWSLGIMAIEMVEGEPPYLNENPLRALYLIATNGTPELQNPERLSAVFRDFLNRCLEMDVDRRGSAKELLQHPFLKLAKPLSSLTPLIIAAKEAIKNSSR
Sequence of UniProt P21127 (whole entry, looked up): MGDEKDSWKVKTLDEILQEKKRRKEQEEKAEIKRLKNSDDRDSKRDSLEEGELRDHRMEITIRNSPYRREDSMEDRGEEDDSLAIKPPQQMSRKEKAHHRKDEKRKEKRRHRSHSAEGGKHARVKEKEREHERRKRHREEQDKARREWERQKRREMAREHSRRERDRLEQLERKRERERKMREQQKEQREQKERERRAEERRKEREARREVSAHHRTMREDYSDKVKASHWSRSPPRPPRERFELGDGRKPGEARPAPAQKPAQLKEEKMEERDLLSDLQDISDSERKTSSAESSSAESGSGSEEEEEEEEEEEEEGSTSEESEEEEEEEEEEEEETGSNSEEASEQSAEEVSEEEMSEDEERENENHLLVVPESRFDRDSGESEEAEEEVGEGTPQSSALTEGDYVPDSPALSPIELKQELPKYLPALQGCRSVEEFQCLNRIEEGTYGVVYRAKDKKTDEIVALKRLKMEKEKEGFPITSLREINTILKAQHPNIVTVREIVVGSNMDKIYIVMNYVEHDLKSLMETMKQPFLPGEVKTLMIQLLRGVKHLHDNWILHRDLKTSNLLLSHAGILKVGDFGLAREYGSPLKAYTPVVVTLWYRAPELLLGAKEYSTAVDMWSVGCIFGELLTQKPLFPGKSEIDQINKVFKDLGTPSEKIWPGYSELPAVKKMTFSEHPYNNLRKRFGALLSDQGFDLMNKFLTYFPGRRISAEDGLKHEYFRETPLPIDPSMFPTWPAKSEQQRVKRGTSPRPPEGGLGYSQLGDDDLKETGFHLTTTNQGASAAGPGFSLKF
Sequence of UniProt P50750 (whole entry, looked up): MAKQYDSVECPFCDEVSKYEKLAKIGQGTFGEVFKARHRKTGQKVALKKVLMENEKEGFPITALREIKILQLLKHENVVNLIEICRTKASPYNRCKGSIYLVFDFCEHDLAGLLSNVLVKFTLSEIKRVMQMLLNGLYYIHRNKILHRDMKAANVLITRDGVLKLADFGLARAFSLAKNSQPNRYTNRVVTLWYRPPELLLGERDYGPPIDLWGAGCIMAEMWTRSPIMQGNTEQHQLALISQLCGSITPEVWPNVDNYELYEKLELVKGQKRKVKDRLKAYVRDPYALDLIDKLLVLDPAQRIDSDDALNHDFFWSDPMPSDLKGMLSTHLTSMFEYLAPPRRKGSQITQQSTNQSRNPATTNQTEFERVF
Sequence of UniProt Q05513 (whole entry, looked up): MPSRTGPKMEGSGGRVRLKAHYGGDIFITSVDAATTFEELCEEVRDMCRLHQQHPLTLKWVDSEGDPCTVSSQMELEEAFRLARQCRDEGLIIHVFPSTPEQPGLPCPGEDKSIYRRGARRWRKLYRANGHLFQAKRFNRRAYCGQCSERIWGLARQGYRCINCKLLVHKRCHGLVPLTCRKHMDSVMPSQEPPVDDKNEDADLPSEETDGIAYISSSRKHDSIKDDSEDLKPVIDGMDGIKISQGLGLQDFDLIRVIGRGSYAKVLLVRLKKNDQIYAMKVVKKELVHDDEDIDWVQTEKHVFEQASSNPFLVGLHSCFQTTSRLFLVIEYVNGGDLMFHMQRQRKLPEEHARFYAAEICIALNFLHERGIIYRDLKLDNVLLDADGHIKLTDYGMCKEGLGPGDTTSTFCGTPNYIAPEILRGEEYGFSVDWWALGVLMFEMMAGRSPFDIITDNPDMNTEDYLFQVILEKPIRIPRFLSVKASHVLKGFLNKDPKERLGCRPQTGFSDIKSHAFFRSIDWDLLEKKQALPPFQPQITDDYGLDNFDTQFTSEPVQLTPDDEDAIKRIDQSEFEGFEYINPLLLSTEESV

Set 1
Cell line: MDA-MB-231
Observed: cell viability
Technique: CellCounting-Lite
Tested at: 2.743 nM
Temperature: 37 °C
Reading: higher = more viable cells
The luminescence signal of `CCn1cnc2c(NCc3nc4ccc(F)c(F)c4[nH]3)nc(N3CCn4ncnc4C3)nc21` is reported as 506000 a.u. and 522000 a.u. and 518000 a.u.
`CCn1cnc2c(NCc3nc4cc(Cl)c(Cl)cc4[nH]3)nc(N3CCN(Cc4ccncc4)CC3)nc21` gave a luminescence signal of 479000 a.u. and 472000 a.u. and 425000 a.u.
For `CCn1cnc2c(NCc3nc4cc(Cl)c(Cl)cc4[nH]3)nc(N3CCN(C(=O)[C@H](C)NC(C)=O)CC3)nc21`, the luminescence signal was 495000 a.u. and 439000 a.u. and 452000 a.u.
With `CCn1cnc2c(NCc3nc4cc(Cl)c(Cl)cc4[nH]3)nc(N3CCN(C(=O)c4ccncc4)CC3)nc21` the luminescence signal was 485000 a.u. and 509000 a.u. and 385000 a.u.
`CCn1cnc2c(NCc3nc4cc(Cl)c(Cl)cc4[nH]3)nc(N3CCN(C(=O)c4ccccn4)CC3)nc21` gave a luminescence signal of 376000 a.u. and 352000 a.u. and 374000 a.u.
For `CC(=O)N1CCN(c2nc(NCc3nc4cc(Cl)c(Cl)cc4[nH]3)c3ncn(C)c3n2)CC1`, the luminescence signal was 328000 a.u. and 474000 a.u. and 456000 a.u.
`CCn1cnc2c(NCc3nc4cc(Cl)c(Cl)cc4[nH]3)nc(N3CCN(C(C)=O)CC3)nc21` has a luminescence signal of 452000 a.u. and 460000 a.u. and 390000 a.u.
With `CCn1cnc2c(NCc3nc4cc(Cl)c(Cl)cc4[nH]3)nc(N3CCN(S(C)(=O)=O)CC3)nc21` the luminescence signal was 466000 a.u. and 429000 a.u. and 493000 a.u.
With `CCn1cnc2c(NCc3nc4cc(Cl)c(Cl)cc4[nH]3)nc(N3CCN(C(=O)c4ccccc4)CC3)nc21` the luminescence signal was 493000 a.u. and 509000 a.u. and 430000 a.u.
`CCn1cnc2c(NCc3nc4cc(Cl)c(Cl)cc4[nH]3)nc(N3CCn4ncnc4C3)nc21` has a luminescence signal of 520000 a.u. and 534000 a.u. and 423000 a.u.

Set 2
SMILES: CC[C@@]1(c2ccccc2)C2=C(CC(C)(C)CC2=O)Nc2n[nH]cc21
Tested at: 1 µM
The remaining binding was 100% (Mitogen-activated protein kinase 7 (MAPK7, Homo sapiens, UniProt Q13164); binding, competition with immobilised ligand).
For Mitogen-activated protein kinase 3 (MAPK3, Homo sapiens, UniProt P27361); binding, competition with immobilised ligand: remaining binding read 100%.
It gave 100% for remaining binding (Cyclin-dependent kinase-like 5 (CDKL5, Homo sapiens, UniProt O76039); binding, competition with immobilised ligand).
It gave 100% for remaining binding (Phosphatidylinositol 4,5-bisphosphate 3-kinase catalytic subunit alpha isoform (PIK3CA, Homo sapiens, UniProt P42336, H1047Y); kinase binding, KINOMEscan; baseline: DMSO control).
It gave 100% for remaining binding (Cyclin-dependent kinase 11B (CDK11B, Homo sapiens, UniProt P21127); binding, competition with immobilised ligand).
For Aurora kinase C (AURKC, Homo sapiens, UniProt Q9UQB9); binding, competition with immobilised ligand: remaining binding read 99%.
Cyclin-dependent kinase 4, with cyclin D3 (CDK4, Homo sapiens, UniProt P11802); binding, competition with immobilised ligand — remaining binding: 100%.
Serine/threonine-protein kinase D2 (PRKD2, Homo sapiens, UniProt Q9BZL6); binding, competition with immobilised ligand — remaining binding: 76%.
AP2-associated protein kinase 1 (AAK1, Homo sapiens, UniProt Q2M2I8); kinase binding, KINOMEscan; baseline: DMSO control — remaining binding: 90%.
It gave 100% for remaining binding (Homeodomain-interacting protein kinase 3 (HIPK3, Homo sapiens, UniProt Q9H422); kinase binding, KINOMEscan; baseline: DMSO control).
For Serine/threonine-protein kinase 38-like (STK38L, Homo sapiens, UniProt Q9Y2H1); kinase binding, KINOMEscan; baseline: DMSO control: remaining binding read 90%.
The remaining binding was 100% (Tyrosine-protein kinase ABL1, non-phosphorylated (ABL1, Homo sapiens, UniProt P00519, F317L); kinase binding, KINOMEscan; baseline: DMSO control).
For Epidermal growth factor receptor (EGFR, Homo sapiens, UniProt P00533); binding, competition with immobilised ligand: remaining binding read 100%.
The remaining binding was 96% (Dual specificity protein kinase CLK4 (CLK4, Homo sapiens, UniProt Q9HAZ1); binding, competition with immobilised ligand).
For Mast/stem cell growth factor receptor Kit (KIT, Homo sapiens, UniProt P10721, V559D); binding, competition with immobilised ligand: remaining binding read 100%.
It gave 91% for remaining binding (Calcium/calmodulin-dependent protein kinase kinase 2 (CAMKK2, Homo sapiens, UniProt Q96RR4); kinase binding, KINOMEscan; baseline: DMSO control).

Set 3
Compound: CNc1ncc2cc(-c3cc(OC)cc(OC)c3Cl)c(=O)n(CCc3ccc(NC(=O)C(C#N)=CC(C)(C)N4CCOCC4)cc3)c2n1
Observed: kinase activity
DCLK2: Serine/threonine-protein kinase DCLK2 (DCLK2, Homo sapiens, UniProt Q8N568)
Sequence of UniProt Q8N568 (whole entry, looked up): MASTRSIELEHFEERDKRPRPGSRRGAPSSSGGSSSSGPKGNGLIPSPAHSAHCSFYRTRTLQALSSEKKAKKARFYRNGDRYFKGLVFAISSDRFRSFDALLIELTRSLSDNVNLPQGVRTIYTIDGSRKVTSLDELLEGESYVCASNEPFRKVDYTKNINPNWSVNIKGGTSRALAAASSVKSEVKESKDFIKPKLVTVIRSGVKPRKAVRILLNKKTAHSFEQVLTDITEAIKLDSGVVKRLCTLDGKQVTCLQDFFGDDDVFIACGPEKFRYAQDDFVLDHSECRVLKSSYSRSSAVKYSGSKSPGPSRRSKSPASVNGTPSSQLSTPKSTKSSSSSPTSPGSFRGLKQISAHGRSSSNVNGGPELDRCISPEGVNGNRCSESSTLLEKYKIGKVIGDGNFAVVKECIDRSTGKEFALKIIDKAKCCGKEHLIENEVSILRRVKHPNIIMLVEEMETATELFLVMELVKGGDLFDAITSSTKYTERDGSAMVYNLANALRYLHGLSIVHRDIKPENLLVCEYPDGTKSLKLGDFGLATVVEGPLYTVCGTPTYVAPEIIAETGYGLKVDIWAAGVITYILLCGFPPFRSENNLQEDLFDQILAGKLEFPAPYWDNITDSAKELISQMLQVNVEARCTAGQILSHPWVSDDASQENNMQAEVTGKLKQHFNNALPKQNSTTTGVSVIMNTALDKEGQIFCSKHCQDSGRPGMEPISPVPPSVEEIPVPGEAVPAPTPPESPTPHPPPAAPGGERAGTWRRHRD
AKT2: RAC-beta serine/threonine-protein kinase (AKT2, Homo sapiens, UniProt P31751)
Sequence of UniProt P31751 (whole entry, looked up): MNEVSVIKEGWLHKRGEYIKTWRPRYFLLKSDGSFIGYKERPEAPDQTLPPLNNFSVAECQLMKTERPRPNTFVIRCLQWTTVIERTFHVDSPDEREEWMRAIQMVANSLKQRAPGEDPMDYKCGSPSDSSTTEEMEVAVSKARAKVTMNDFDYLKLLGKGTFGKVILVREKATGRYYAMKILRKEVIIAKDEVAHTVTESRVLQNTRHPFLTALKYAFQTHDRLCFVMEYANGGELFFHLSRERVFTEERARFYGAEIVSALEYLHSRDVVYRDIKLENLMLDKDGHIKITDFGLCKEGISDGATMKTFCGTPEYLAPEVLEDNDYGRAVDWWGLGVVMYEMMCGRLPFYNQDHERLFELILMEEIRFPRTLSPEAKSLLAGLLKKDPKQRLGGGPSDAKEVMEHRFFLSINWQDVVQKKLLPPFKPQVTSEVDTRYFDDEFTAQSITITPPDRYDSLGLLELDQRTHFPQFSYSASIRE
DCLK2; 0.1 µM — inhibition: 4%.
It gave -2% for inhibition (MAP kinase-interacting serine/threonine-protein kinase 1 (MKNK1, Homo sapiens, UniProt Q9BUB5); 1 µM).
It gave -2% for inhibition (Cytoplasmic tyrosine-protein kinase BMX (BMX, Homo sapiens, UniProt P51813); 0.1 µM).
cAMP-dependent protein kinase catalytic subunit PRKX (PRKX, Homo sapiens, UniProt P51817); 0.1 µM — inhibition: -1%.
The inhibition was 98% (Fibroblast growth factor receptor 2 (FGFR2, Homo sapiens, UniProt P21802); 1 µM).
DCLK2; 1 µM — inhibition: 1%.
It gave -1% for inhibition (Receptor tyrosine-protein kinase erbB-4 (ERBB4, Homo sapiens, UniProt Q15303); 0.1 µM).
Cyclin-dependent kinase 9, with cyclin T1 (CDK9, Homo sapiens, UniProt P50750); 1 µM — inhibition: -1%.
For Serine/threonine-protein kinase D3 (PRKD3, Homo sapiens, UniProt O94806); 1 µM: inhibition read 9%.
It gave 0% for inhibition (MAP kinase-activated protein kinase 3 (MAPKAPK3, Homo sapiens, UniProt Q16644); 1 µM).
SRSF protein kinase 2 (SRPK2, Homo sapiens, UniProt P78362); 0.1 µM — inhibition: 2%.
The inhibition was -1% (Aurora kinase A (AURKA, Homo sapiens, UniProt O14965); 0.1 µM).
Protein kinase C alpha type (PRKCA, Homo sapiens, UniProt P17252); 0.1 µM — inhibition: -11%.
Serine/threonine-protein kinase haspin (HASPIN, Homo sapiens, UniProt Q8TF76); 1 µM — inhibition: 6%.
For Serine/threonine-protein kinase PAK 3 (PAK3, Homo sapiens, UniProt O75914); 0.1 µM: inhibition read -2%.
For MAP/microtubule affinity-regulating kinase 3 (MARK3, Homo sapiens, UniProt P27448); 1 µM: inhibition read 8%.
It gave 1% for inhibition (AKT2; 0.1 µM).
The inhibition was -1% (Protein kinase C zeta type (PRKCZ, Homo sapiens, UniProt Q05513); 1 µM).
The inhibition was 4% (AKT2; 1 µM).
For Protein kinase C iota type (PRKCI, Homo sapiens, UniProt P41743); 1 µM: inhibition read 1%.
Serine/threonine-protein kinase Sgk3 (SGK3, Homo sapiens, UniProt Q96BR1); 1 µM — inhibition: 1%.

Set 4
Structure (SMILES): C[C@@H]1CN(c2ccc(-c3cc(C(=O)NCCOCCOCCOCCOCCNC(=O)/C=C/c4[nH]cc(C(=O)N[C@@H](CC(N)=O)c5ccc(F)c(Cl)c5)c4-c4ccc(Cl)cc4F)ccc3F)cc2NC(=O)c2c[nH]c(=O)cc2C(F)(F)F)C[C@H](C)N1C
Observed: thermal unfolding
Technique: differential scanning fluorimetry
Tested at: 5.5 µM
Reading: higher = more unfolded
DCAF1: DDB1- and CUL4-associated factor 1 (DCAF1, Homo sapiens, UniProt Q9Y4B6)
Sequence of UniProt Q9Y4B6 (whole entry, looked up): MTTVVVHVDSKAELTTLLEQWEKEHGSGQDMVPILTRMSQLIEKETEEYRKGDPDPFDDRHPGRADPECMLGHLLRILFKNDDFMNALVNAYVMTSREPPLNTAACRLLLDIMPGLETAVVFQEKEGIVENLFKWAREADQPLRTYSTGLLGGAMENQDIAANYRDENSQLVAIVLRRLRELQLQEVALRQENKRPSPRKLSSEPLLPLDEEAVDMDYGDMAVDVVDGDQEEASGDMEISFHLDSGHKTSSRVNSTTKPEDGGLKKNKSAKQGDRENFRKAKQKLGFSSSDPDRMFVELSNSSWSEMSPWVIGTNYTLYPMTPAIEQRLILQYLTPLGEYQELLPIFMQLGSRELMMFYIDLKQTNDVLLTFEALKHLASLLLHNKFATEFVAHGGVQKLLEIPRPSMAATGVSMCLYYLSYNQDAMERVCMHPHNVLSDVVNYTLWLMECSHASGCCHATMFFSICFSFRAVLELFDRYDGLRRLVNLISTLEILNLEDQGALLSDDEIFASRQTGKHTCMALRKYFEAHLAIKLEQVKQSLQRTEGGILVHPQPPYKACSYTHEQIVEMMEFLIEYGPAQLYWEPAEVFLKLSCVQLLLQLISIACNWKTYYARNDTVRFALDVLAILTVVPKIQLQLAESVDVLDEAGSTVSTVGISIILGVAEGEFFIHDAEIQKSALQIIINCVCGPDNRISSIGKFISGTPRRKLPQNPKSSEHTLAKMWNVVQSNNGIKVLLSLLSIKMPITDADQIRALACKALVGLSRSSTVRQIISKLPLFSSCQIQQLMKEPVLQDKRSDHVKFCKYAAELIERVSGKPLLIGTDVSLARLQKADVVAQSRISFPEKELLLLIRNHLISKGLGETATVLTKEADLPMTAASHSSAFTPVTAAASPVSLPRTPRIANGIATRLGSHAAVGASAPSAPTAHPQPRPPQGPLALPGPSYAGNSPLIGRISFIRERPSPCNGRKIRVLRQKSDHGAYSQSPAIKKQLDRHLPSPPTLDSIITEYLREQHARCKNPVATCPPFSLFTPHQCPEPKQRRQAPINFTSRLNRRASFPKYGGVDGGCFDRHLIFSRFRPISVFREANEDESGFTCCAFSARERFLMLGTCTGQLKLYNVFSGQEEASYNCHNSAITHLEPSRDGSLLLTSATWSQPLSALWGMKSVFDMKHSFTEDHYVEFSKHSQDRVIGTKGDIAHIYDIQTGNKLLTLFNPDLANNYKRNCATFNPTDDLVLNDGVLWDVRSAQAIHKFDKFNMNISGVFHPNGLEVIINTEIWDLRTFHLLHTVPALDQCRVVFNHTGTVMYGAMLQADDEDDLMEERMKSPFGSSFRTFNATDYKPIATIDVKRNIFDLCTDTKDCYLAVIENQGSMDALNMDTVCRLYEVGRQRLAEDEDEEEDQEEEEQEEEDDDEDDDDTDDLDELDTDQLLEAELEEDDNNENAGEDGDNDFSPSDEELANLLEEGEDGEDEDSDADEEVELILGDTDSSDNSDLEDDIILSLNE
WDR5: WD repeat-containing protein 5 (WDR5, Homo sapiens, UniProt P61964)
The “SYPRO Orange fluorescence” was 42100 a.u. (DCAF1; 83.21 °C).
DCAF1; 63.21 °C — “SYPRO Orange fluorescence”: 54600 a.u.
WDR5; 45 °C — “SYPRO Orange fluorescence”: 15300 a.u.
It gave 12200 a.u. for “SYPRO Orange fluorescence” (DCAF1; 41.8 °C).
The “SYPRO Orange fluorescence” was 15900 a.u. (WDR5; 59.21 °C).
The “SYPRO Orange fluorescence” was 58800 a.u. (DCAF1; 65.01 °C).
For DCAF1; 69.01 °C: “SYPRO Orange fluorescence” read 57000 a.u.
For DCAF1; 52.81 °C: “SYPRO Orange fluorescence” read 17700 a.u.
WDR5; 33 °C — “SYPRO Orange fluorescence”: 12900 a.u.
The “SYPRO Orange fluorescence” was 14300 a.u. (WDR5; 41.2 °C).
It gave 11100 a.u. for “SYPRO Orange fluorescence” (DCAF1; 38.6 °C).

Excerpt of the above (set 4):
The “SYPRO Orange fluorescence” was 42100 a.u. (DCAF1; 83.21 °C).
DCAF1; 63.21 °C — “SYPRO Orange fluorescence”: 54600 a.u.
For DCAF1; 69.01 °C: “SYPRO Orange fluorescence” read 57000 a.u.
The “SYPRO Orange fluorescence” was 15900 a.u. (WDR5; 59.21 °C).
